Measurements gathered from unrelated publications.
Each numbered part is a random draw from the data of one study; scales do not carry over between parts. Substitutions count along the parent as printed.

Study 1
Target: RING finger protein unkempt homolog, zinc fingers 1-6, GST-SBP tag (UNK, Homo sapiens, UniProt Q9C0B0, residues 30-357)
Method: RNA Bind-n-Seq
Form: RNA
Matrix: in vitro
Concentration: not given
Notes: RNA with constant flanks, human and mouse sites, ends assumed
Reference: input RNA pool
Reading: higher = stronger binding
All sequences stand within: GGGAGUUCUACAGUCCGACGAUC … CAACAGAGGAUUGAGCAUCA
Residues (chain): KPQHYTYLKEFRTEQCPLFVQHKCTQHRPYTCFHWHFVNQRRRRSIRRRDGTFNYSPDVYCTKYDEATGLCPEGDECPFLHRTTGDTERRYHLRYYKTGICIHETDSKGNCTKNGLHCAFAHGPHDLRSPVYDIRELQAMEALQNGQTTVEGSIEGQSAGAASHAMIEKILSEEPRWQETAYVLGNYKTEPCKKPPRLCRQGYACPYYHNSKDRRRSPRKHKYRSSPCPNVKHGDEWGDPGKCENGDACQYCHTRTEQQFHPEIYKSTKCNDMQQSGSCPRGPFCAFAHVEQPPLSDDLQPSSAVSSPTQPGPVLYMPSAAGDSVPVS
| Strand | bound/input enrichment |
| --- | --- |
| UGUGAUGGAGGUGUUUCUGCGACCAGACACAGGAUACCGCUGUGUCUGCACCCGGUUGCCUGCAUGGCCAGAGGAAAAGUCAGUUGGAUUAAACAUCAUGGUAUACUUGGCUGUUGUUUU | 0.112 ratio |
| AGGCGACAAAAGGCUAGAGAAAGGCAGCAGAAAUUGCUCGCAGAGUUUGCCUCACGACAGAAAAGCUUUAUGGAAACUGCAAUGGAUGUUGAUUCUCCUGAGAACGAUAUUCCUAUGGAA | 0.0841 ratio |
| CCACAGACUUAUAAAGAACAUUUAGAAGGACAGAAACAUAAAAAAAAAGAAGCUGCAUUGAAAGCCUCACAAAAUACCAGCAGCAGCAACAGUUCUACUCGUGGGACUCAAAAUCAGCUA | 1.02 ratio |
| CAAACAUUACAAGCCUAAAAAGAGGUUUACCAGCACUAAGUGUUUUGCCUUCAUGGAGAUGGAUGAAAUUAAACCUGGGCCAAUCGUAAUAGAACUAUACAAGAAACCCACUGACUUUAA | 0.25 ratio |
| UUACAUACUCUAGAGGAAGAAAAGGAAGAACUAGCUCAGUAUCAGAAGUGGGAUAAAAUGAGACGAGCCCUGGAAUAUACCAUUUACAAUCAGGAACUUAACGAGACUCGUGCCAAACUU | 0.239 ratio |
| UAUGGCUUAAAAUGCUUUUGGAGUUUAUUUCUCAAAAUUAAAAUCUGGUCACAUGAGCUUUAGUUUGUUUUCUGGUUUAAAAAAUAAAAAGGUUUCUCUUAACAGUAUUUCCAGUGACAA | 0.289 ratio |
| GUUCAAAUAUUAUGUGAAUGUUGUUAAGAAAACAGACUGUAAUUUACCCUAGUAAACUAGUAGUAAUGUCAAGAUUCAAACCUAGGUGUACUCAAAAAUCAGCUCUCUAGUGUUAAGUCC | 2.46 ratio |
| GUGCAGCAGGACACUAUCCUGGCCGAGGGCCUUCACUUCAGGAUCCCUUGGUUCCAGUACCCCAUUAUCUAUGACAUUCGGGCCAGACCUCGAAAAAUCUCCUCCCCUACAGGCUCCAAA | 0.432 ratio |

Study 2
Target: CCND2, cyclin fold, Cln2 fusion (human)
Method: yeast growth competition, sequencing
Matrix: yeast
Notes: weak parent motif
Reference: not given
Reading: higher = stronger binding
Starting sequence: PPP1R3F docking peptide (human); VAPRRVLFADEAL
| Variant | normalised enrichment score |
| --- | --- |
| VAPRRALFADEAL [V6A] | -0.00333 |
| AAPRRVLFADEAL [V1A] | -0.016 |
| VAARRVLFADEAL [P3A] | 0.239 |
| VAPRRVLFADAAL [E11A] | 0.313 |
| VAPRKVLFADEAL [R5K] | -0.178 |
| VAPRRVLAADEAL [F8A] | -0.0935 |

Study 3
Target: RNA binding protein fox-1 homolog 2, RRM domain, GST-SBP tag (RBFOX2, Homo sapiens, UniProt O43251-10, residues 100-194)
Method: RNA Bind-n-Seq
Form: RNA
Matrix: in vitro
Concentration: 365 nM
Notes: natural RNA segment, single round, ends assumed
Reference: no-protein control
Reading: higher = stronger binding
All sequences stand within: GGGAGUUCUACAGUCCGACGAUC … UGGAAUUCUCGGGUGCCAA
Construct (chain): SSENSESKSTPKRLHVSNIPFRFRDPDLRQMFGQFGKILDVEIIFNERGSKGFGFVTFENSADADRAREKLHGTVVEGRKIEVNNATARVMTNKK
| Strand | RBNS enrichment (R) |
| --- | --- |
| CAACUAAAAUAUCAUAGUUCUGUGGUAGACAUUGUUUUAUAAUGAAAUAACUGCAACUAGAGAAAACUGUAUAAAAACAUUAAAUUGUCAGUAUUUUUGUAAGGUUCCAU | 0.348 |
| ACUGGCCUCUUUUCAUUUCACUAGUGGCCGAGACACCCUCUCUGGCAUUUAUCACUGUUGGCCGGUGUGAUGAGUAUAGAGUGCCACCCAAGGCACCAGUCACACAAGCU | 0.438 |
| UGCCCCCUUUUUACAACUGAAUUCAUCUAGCAUUUUCAUAUGGUGGAUUUAAACUGCUUAAAAAAGAAAAUGUGACCGGCUCUCCUGCUUGGGUCUCAGGGGAGAUAUGC | 4.58 |
| AAAUAUUUUAAGGCAAGUCCAUAGGUCUGAAUCUCUUAAGAAUUCUCGGCCUCUGUGGGAUUUAGGGAAGCAUUAUAAAUGCAUUAAUCCUUAUAGUCAAUUCUGUGCCU | 0.368 |
| UCUUGGUCAGCCUCAGUGAUGGCCUGACCCCAGCUGUGAGGCCUUGUGAGCUAAGGCUGAAGAGACCUUGCCUGUGGGAGCUGGGGUGGUACCUGCCCCAACAGCCCCCC | 0.193 |
| GGUGCAUGCUGCUAUGUGAAUCUUAAAACUCCCUGCUGGAGGGAGGAGGCUGCUACAUUCCUCUCGUUCUGUCUCACACACUCUUCCUCCGAGUUUGUGUGUCUAGAACU | 7.24 |
| UCUUGGGUCUAAUCUUUCCCCUUGACCCAGAACUUCCUCCCCACAAAAAUGCCUUUAAAAACCUUCCUGAGACUUAAGCAUUCUGCCCCACUUACUAACUGCCAGUUCUC | 1.33 |
| UCUGUUCACAGUUUCUGUGUCUUUGGGUUCCUCCUUUUUCCAAGAGAAAAGGAUGUGACUGCCCAUCCUAGGUAUACUGGCUGUCUCCCUCAGUGGAGAAGAUGAGAAGA | 0.239 |

Study 4
Target: Histone acetyltransferase KAT6A, winged helix 1, GST fusion (KAT6A, Homo sapiens, UniProt Q92794, residues 1-85)
Method: protein binding microarray
Form: double-stranded DNA, one strand shown
Matrix: in vitro
Concentration: not given
Notes: 8-mer, flanks averaged, mean of 2 arrays, mostly near background
Reference: not given
Reading: higher = stronger binding
Target sequence (chain): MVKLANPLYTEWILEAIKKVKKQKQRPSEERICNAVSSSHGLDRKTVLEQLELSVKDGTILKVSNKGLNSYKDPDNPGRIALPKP
| Strand | E-score |
| --- | --- |
| AATTTAGC | 0.0146 |
| GAGCTCCC | -0.0205 |
| TCGACACA | -0.155 |
| CCGGGCCG | 0.42 |
| CGTTTCTA | 0.0147 |
| ATGCATCG | 0.0558 |
| CATCCCTA | -0.144 |
| ACACCCGG | 0.254 |
| ATACATAG | -0.116 |
| CCAGTAGG | -0.102 |
| AAAACGGC | 0.278 |
| GAACGTTC | -0.142 |
| CAGGACAC | -0.0657 |
| CGAAACAA | -0.123 |
| ATACGGGC | 0.272 |
| CTGTGTTC | -0.307 |
| AGAACACG | -0.0642 |
| AAAGATTA | -0.0425 |
| GAGGGAGA | -0.283 |
| ACTTAACG | 0.00709 |
| CGGCGCCC | 0.426 |

Repeated from above (study 4):
| Strand | E-score |
| --- | --- |
| CCGGGCCG | 0.42 |
| CGTTTCTA | 0.0147 |
| ATGCATCG | 0.0558 |
| CATCCCTA | -0.144 |
| ACACCCGG | 0.254 |
| ATACATAG | -0.116 |
| CCAGTAGG | -0.102 |
